Published values gathered from unrelated publications.
Numbered parts are unrelated; each lists some results of a single study. Positions count from the first letter of the parent shown.

Block 1 — target: CCNE2, cyclin fold, Cln2 fusion (human); method: yeast growth competition, sequencing; medium: yeast; setting: strong parent motif; baseline: not given; reading: higher = stronger binding
Starting sequence: CDKN1B docking peptide (human); PSACRNLFGPVDH; partner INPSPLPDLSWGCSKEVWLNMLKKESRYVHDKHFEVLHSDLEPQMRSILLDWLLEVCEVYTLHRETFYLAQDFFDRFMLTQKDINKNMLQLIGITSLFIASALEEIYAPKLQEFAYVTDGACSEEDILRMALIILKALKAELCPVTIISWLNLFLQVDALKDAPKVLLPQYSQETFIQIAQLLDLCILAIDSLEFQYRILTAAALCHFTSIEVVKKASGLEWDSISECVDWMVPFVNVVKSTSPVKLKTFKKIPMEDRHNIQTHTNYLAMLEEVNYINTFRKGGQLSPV
`V11M`: “normalised enrichment score” 1.35.
Under “normalised enrichment score”, `G9Q` is recorded as 0.669.
`F8A`: “normalised enrichment score” -0.233.
`D12W`: “normalised enrichment score” 1.7.
For `S2R`, “normalised enrichment score” read 1.66.
`G9M`: “normalised enrichment score” 0.616.
`H13K`: “normalised enrichment score” 1.77.
`A3W` — result for “normalised enrichment score”: 2.51.
`H13D`: “normalised enrichment score” 1.33.
Under “normalised enrichment score”, `N6M` is recorded as 1.81.
For `P1N`, “normalised enrichment score” read 2.54.
`N6Q`: “normalised enrichment score” 2.41.
For `P1Q`, “normalised enrichment score” read 1.94.
`P1D`: “normalised enrichment score” 0.879.
`P10Y`: “normalised enrichment score” 1.31.
Under “normalised enrichment score”, `V11R` is recorded as 0.203.
`H13M`: “normalised enrichment score” 1.4.
`A3N` — result for “normalised enrichment score”: 0.693.
`H13G`: “normalised enrichment score” 1.12.
`D12V` — result for “normalised enrichment score”: 1.53.
`D12A`: “normalised enrichment score” 1.93.
`N6C`: “normalised enrichment score” 0.559.
`H13C` — result for “normalised enrichment score”: 1.04.
Under “normalised enrichment score”, `N6W` is recorded as 1.12.
For `V11P`, “normalised enrichment score” read 1.02.

Block 2 — method: protein-binding microarray; form: double-stranded DNA, one strand shown; medium: in vitro; tested at: 2540 nM top; setting: 60-bp whole probe; with: salmon DNA 0.4 mg/ml; baseline: random background probes; reading: higher = stronger binding; shared flanks, not repeated: GCCTAGCAC … GTCTTGATTCGCTTGACGCTGCTG
Target: Interferon regulatory factor 3, full length, phosphomimetic (IRF3, Homo sapiens, UniProt Q14653, residues 1-427, S386D/S396D/S398D/S402D/T404D/S405D)
Target sequence (chain): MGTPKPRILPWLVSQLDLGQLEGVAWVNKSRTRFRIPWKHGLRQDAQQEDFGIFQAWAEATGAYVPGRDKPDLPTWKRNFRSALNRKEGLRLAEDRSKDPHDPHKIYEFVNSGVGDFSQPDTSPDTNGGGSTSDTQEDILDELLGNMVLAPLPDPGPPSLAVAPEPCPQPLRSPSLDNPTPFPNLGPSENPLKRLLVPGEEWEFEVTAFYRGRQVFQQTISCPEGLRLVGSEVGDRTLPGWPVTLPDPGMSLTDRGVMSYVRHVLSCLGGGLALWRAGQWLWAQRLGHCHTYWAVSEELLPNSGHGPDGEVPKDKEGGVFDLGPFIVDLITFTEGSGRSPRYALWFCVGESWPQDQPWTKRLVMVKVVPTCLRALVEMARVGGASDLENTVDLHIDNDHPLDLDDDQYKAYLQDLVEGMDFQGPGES
Under “fitted relative affinity”, `GGGCCTTGCATGTTTTTGACAGTGCTA` is recorded as -0.929 z-score.
For `TTAGGACTGGGGAGTGGGTTAGTGCTA`, “fitted relative affinity” read -0.921 z-score.
Under “fitted relative affinity”, `TTTGGTTTCCTTTTCCTTTAGTGCTAG` is recorded as 13.2 z-score.
`CTCAGGTAATATTTCCTGCTGTGCTAG` — result for “fitted relative affinity”: -0.12 z-score.
`TCATTTTTACTTTCTGAACTGTGCTAG` — result for “fitted relative affinity”: 4.16 z-score.
`TTAGGACTGCTTCTTCTTTAGTGCTAG` — result for “fitted relative affinity”: -0.15 z-score.
`AAAACACTAATTTTCATTTTGTGCTAG`: “fitted relative affinity” 1.77 z-score.
`GGCGATTTCGGGTTTCGAGACGTGCTA`: “fitted relative affinity” 2.75 z-score.
`TTAGTTTTCGGACTGGGTTAGTGCTAG` — result for “fitted relative affinity”: 2.73 z-score.
Under “fitted relative affinity”, `TTAGGTTTCGGGACCGGGTTAGTGCTA` is recorded as 3.77 z-score.
`GACGGTTTCCTTATCCTGCCGTGCTAG` — result for “fitted relative affinity”: 7.87 z-score.
`CTCTCTTTCCACTTGTCTTTGTGCTAG`: “fitted relative affinity” 2.3 z-score.
`GACGGTCACCTTTTCCTGACGTGCTAG` — result for “fitted relative affinity”: 2.16 z-score.
`TTAGGACTGGGGTTTCGGTAAGTGCTA` — result for “fitted relative affinity”: 1.5 z-score.
`GACGATTCCTGTTTCGAGACGTGCTAG`: “fitted relative affinity” 2.7 z-score.
`AGATGTGTCTTAAATAGGGCAGTGCTA` — result for “fitted relative affinity”: 0.22 z-score.

Block 3 — method: RNA Bind-n-Seq; form: RNA; medium: in vitro; tested at: 365 nM; baseline: no-protein control; reading: higher = stronger binding
Target: RNA binding protein fox-1 homolog 2, RRM domain, GST-SBP tag (RBFOX2, Homo sapiens, UniProt O43251-10, residues 100-194)
Setting: natural RNA segment, single round, ends assumed
Shared flanks, not repeated: GGGAGUUCUACAGUCCGACGAUC … UGGAAUUCUCGGGUGCCAA
Residues (chain): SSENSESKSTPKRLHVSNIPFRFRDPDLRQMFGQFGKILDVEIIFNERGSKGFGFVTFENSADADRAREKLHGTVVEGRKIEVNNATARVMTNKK
Under “RBNS enrichment (R)”, `UGAAAAAUCUAUAUUUAUUAAAGGUAGUAGACAUUUGAAUAUAGUAAUCAAAUUAACUGAUUUUGUUUUCACCCUAAAUACAUACAACCAUUCCUCCACUUUCAUAAAUU` is recorded as 0.899.
`GAGACACGAGAAGGAUAGCCUGACAUCAGAUGACAGACUGGAGGACUGUAGCACAUCUCUGGGCGUUUCCCUACCCAGAGAAGAGCCCCCCCCUUUGAUACAAAUCGGUU` — result for “RBNS enrichment (R)”: 0.356.
For `GCUUAAUUUAUUGUUUAACACCCCCUAACUGCCGAAACCAAAGUGAUACGGAGUCGUCUUGUCUGCAUUUUGGCCUCAGCAUCAUUAACUUCAAAGCUUUAUUCUGUCUG`, “RBNS enrichment (R)” read 0.648.
`UUUCAUUGUAUCAAAUACUUUUUUAAAGACUACAAAUAAAGUCUAUUAGGACUGUGACCCAAUAGAACAAAUGUUUCUUUAUUUCUGAGAUGGGGUGCAUGGAAAGCUGU` — result for “RBNS enrichment (R)”: 0.667.
Under “RBNS enrichment (R)”, `UUAACUUUCUCUUCCUUAAAUACAAGUCAAUGAAGUGAAGGAGGGUAUGCAUACAUGCCCCUCACCCUACCCCAGGGACCAUGGUUCCUAGGAUCUCACUGCCUCCCUCU` is recorded as 0.232.
`UCUCAGUGCUCUACAGAACCCCCAGAGGGAAGCUGAUUAUACAUUCCAGGAAGGCGGCCGGUAGCUUAGUGUAGCCUCUGCAAUAAAAGAGCUUUUCCUUAAUGUUUGCU`: “RBNS enrichment (R)” 0.669.
Under “RBNS enrichment (R)”, `AUUCAGAUCUCCAGUAGGGUUUUGUAUCUAAUGUAUUUGGCCACCAGUUUUACAUGUAGGUCAUGACUAUACCUGGAUUUUAUCAUUAAGUUAACUUUAAAGUAUAUACA` is recorded as 0.424.
`AAGUAGCAUUCCUCCACCUCAGGCCUUGGGUAGAUUUGGCAAAAGAACAGGAGCAGCAUAGGCUGUUUGAGCUUUGGGGAAAUGAACUUUGCUUUUUAUAUUUAACUAGG` — result for “RBNS enrichment (R)”: 0.689.

Block 4 — target: ATF7, bZIP domain (human); method: DHFR protein complementation; medium: yeast; baseline: wild-type JUN-FOS pair; reading: higher = stronger binding
Setting: single substitutions, most at no-binding floor
Starting sequence: JUN, bZIP domain (human); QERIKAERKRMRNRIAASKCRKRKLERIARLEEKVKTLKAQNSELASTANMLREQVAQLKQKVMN; partner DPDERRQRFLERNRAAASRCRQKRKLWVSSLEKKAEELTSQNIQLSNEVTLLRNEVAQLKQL
For `R53K`, the binding fitness was -1.04 natural log.
With `I28C` the binding fitness was -1.26 natural log.
`V56R` gave a binding fitness of -1.24 natural log.
For `E54S`, the binding fitness was -1.1 natural log.
`R30S` has a binding fitness of -0.743 natural log.
`E32C` has a binding fitness of -0.971 natural log.
`K36A` gave a binding fitness of -0.686 natural log.
The binding fitness of `E54H` is reported as -0.985 natural log.
`A40Q` has a binding fitness of -0.647 natural log.
`T37G` has a binding fitness of -1.03 natural log.
With `A49Q` the binding fitness was -1.4 natural log.
For `A29N`, the binding fitness was -1.06 natural log.
With `L59S` the binding fitness was -1.32 natural log.
For `L31K`, the binding fitness was -1.52 natural log.
With `A29W` the binding fitness was -1.05 natural log.
With `V35H` the binding fitness was -1.55 natural log.
`R30I` gave a binding fitness of -0.917 natural log.
The binding fitness of `L52G` is reported as -1.5 natural log.
With `L38V` the binding fitness was -1.36 natural log.
